Measured values gathered from unrelated publications.
Each line is one published result; not all experiments were run side by side. Values joined by “and” are separate records of one study, mostly repeats; a detail may differ. Numbers after ± are the reported error.

O=C([O][Ti+2][O]C(=O)c1ccc(P(c2ccccc2)c2ccccc2)cc1)c1ccc(P(c2ccccc2)c2ccccc2)cc1.[Cl][Au].[Cl][Au].c1cc[cH-]c1.c1cc[cH-]c1
tumour concentration (ICP-MS, item: gold; NOD.CB17-Prkdc scid/J mice, tumour; dose not given, end of efficacy study): ~50 µg/g

CCCC[C@H](NC(=O)CNC(=O)CNC(=O)CN1CCN(CC(=O)O)CCN(CC(=O)O)CCN(CC(=O)O)CC1)C(=O)N[C@H]1CC(=O)NCCCC[C@@H](C(N)=O)NC(=O)[C@H](Cc2c[nH]c3ccccc23)NC(=O)[C@H](CCCNC(=N)N)NC(=O)[C@@H](Cc2ccccc2)NC(=O)[C@H](Cc2c[nH]cn2)NC1=O [gallium-67 labelled]
tumour to tissue ratio (female C57 mice, B16/F1 melanoma; intravenous, 0.037 MBq, 2 h; baseline: tumour over lung): 63.5

CC(C)(C)ONc1nc(Nc2ccnc(C(F)(F)F)c2)nc(-c2cccc(C(F)(F)F)n2)n1
tumour to plasma ratio (female Balb/cA nude mice xenograft; oral, 54.14 mg/kg, half-life; baseline: tumour over plasma): 2.1 fold

N=C(N)NCCC[C@H](NC(=O)[C@@H]1CSSC[C@H](NC(=O)[C@H](Cc2ccc3ccccc3c2)NC(=O)[C@H](CCCNC(=N)N)NC(=O)[C@H](CCCNC(=N)N)NC(=S)Nc2ccc(C[C@H]3CN(CC(=O)O)CCN(CC(=O)O)CCN3CC(=O)O)cc2)C(=O)N[C@@H](Cc2ccc(O)cc2)C(=O)N[C@@H](CCCNC(N)=O)C(=O)N[C@@H](CCCCN)C(=O)N[C@H](CCCCN)C(=O)N2CCC[C@H]2C(=O)N[C@@H](Cc2ccc(O)cc2)C(=O)N[C@@H](CCCNC(=N)N)C(=O)N[C@@H](CCCNC(N)=O)C(=O)N1)C(N)=O [copper-64 labelled]
tumour and spleen uptake (mice, CHO-CXCR4 tumour and spleen; 4 h, together with: unlabeled peptide 50 µg): inhibited

CCCC[C@H](NC(=O)CNC(=O)CNC(=O)CN1CCN(CC(=O)O)CCN(CC(=O)O)CC1)C(=O)N[C@H]1CC(=O)NCCCC[C@@H](C(N)=O)NC(=O)[C@H](Cc2c[nH]c3ccccc23)NC(=O)[C@H](CCCNC(=N)N)NC(=O)[C@@H](Cc2ccccc2)NC(=O)[C@H](Cc2c[nH]cn2)NC1=O [gallium-67 labelled]
tumour to tissue ratio (female C57 mice, B16/F1 melanoma; intravenous, 0.037 MBq, 24 h; baseline: tumour over lung): 22.5

CCN(CC)c1ccc2c(-c3ccc(S(=O)(=O)NCCNC(=O)CN4CCN(CC(=O)[O-])CCN(CC(=O)O)CCN(CC(=O)[O-])CC4)cc3S(=O)(=O)[O-])c3ccc(=[N+](CC)CC)cc-3oc2c1.[64Cu+2]
tumour uptake (athymic nude mice, U-87 MG glioma xenograft; intravenous, 4 h post-injection): 7.6 %ID/g and 7.58 %ID/g

N=C(N)NCCC[C@@H]1NC(=O)[C@H](CCCCNC(=O)CON=C[C@H](F)[C@@H](O)[C@H](O)[C@H](O)CO)NC(=O)[C@@H](Cc2ccc(O)cc2)NC(=O)[C@H](CC(=O)O)NC(=O)CNC1=O [fluorine-18 labelled]
tumour uptake (nude mice, U-87 MG xenograft, tumour; intravenous, 1 h): 0.95 ± 0.4 %ID/g

O=C([O-])CN1CCN(CC(=O)[O-])CCN(CC(=O)NCCc2ccc3c(c2)C2C=CCC2C(c2cc4c(cc2Br)OCO4)N3)CCN(CC(=O)[O-])CC1.[111In+3] (stereo not drawn)
tumour to tissue ratio (mice with Hec50 tumour xenograft; 1 h; baseline: tumour over blood): 0.71

CCC1=C(C)c2cc3[nH]c(cc4nc(c5c6[nH]c(cc1n2)c(C)c6C(=O)C5)[C@@H](CCC(=O)OC)[C@@H]4C)c(C)c3C(C)OCc1cccc([124I])c1 (stereo partly drawn)
tumour uptake (BALB/c mice with Colon 26 tumours, tumour; 24 h): 4.61 %ID/g

N=C(N)NCCC[C@H](NC(=O)[C@@H]1CSSC[C@H](NC(=O)[C@H](Cc2ccc3ccccc3c2)NC(=O)[C@H](CCCNC(=N)N)NC(=O)[C@H](CCCNC(=N)N)NC(=O)CN2CCN(CC(=O)O)CCN(CC(=O)O)CCN(CC(=O)O)CC2)C(=O)N[C@@H](Cc2ccc(O)cc2)C(=O)N[C@@H](CCCNC(N)=O)C(=O)N[C@@H](CCCCN)C(=O)N[C@H](CCCCN)C(=O)N2CCC[C@H]2C(=O)N[C@@H](Cc2ccc(O)cc2)C(=O)N[C@@H](CCCNC(=N)N)C(=O)N[C@@H](CCCNC(N)=O)C(=O)N1)C(N)=O [copper-64 labelled]
tumour uptake (PET; mice with CHO-CXCR4 tumours, CHO-CXCR4 tumour; 100 µCi, 1 h): 4.09 ± 1.37 %ID/g

N=C(N)NCCC[C@H](NC(=O)CON=C[C@H](F)[C@@H](O)[C@H](O)[C@H](O)CO)C(=O)NCC(=O)N[C@@H](CC(=O)O)C(=O)O [fluorine-18 labelled]
tumour uptake (nude mice, U-87 MG xenograft, tumour; intravenous, 2 h): 0.27 ± 0.06 %ID/g

C[C@]12CC[C@@H]3c4ccc(OCC(=O)N[C@@H](CCCCNC(=O)CN5CCN(CC(=O)[O-])CCN(CC(=O)[O-])CCN(CC(=O)[O-])CC5)C(=O)O)cc4CC[C@H]3[C@@H]1CCC2=O.[68Ga+3]
tumour washout (female nude mice, MCF7 xenograft, tumour; 2.5 h): 16%

Some of these lines once more:
N=C(N)NCCC[C@H](NC(=O)[C@@H]1CSSC[C@H](NC(=O)[C@H](Cc2ccc3ccccc3c2)NC(=O)[C@H](CCCNC(=N)N)NC(=O)[C@H](CCCNC(=N)N)NC(=O)CN2CCN(CC(=O)O)CCN(CC(=O)O)CCN(CC(=O)O)CC2)C(=O)N[C@@H](Cc2ccc(O)cc2)C(=O)N[C@@H](CCCNC(N)=O)C(=O)N[C@@H](CCCCN)C(=O)N[C@H](CCCCN)C(=O)N2CCC[C@H]2C(=O)N[C@@H](Cc2ccc(O)cc2)C(=O)N[C@@H](CCCNC(=N)N)C(=O)N[C@@H](CCCNC(N)=O)C(=O)N1)C(N)=O [copper-64 labelled]
tumour uptake (PET; mice with CHO-CXCR4 tumours, CHO-CXCR4 tumour; 100 µCi, 1 h): 4.09 ± 1.37 %ID/g
